# Measured values pooled from the literature.
# Several values in a cell are separate wells, animals, samples, runs or records. ± marks the error that the study gave.
Compound,assay,test system,setting,scale,quantity,value
O=C(C[n+]1cc(-c2ccc(Cl)cc2)n2c1CCC2)Nc1ccc(Cl)c(Cl)c1,,sheep erythrocytes,"1 h, pH 7.5",,maximum haemolysis,15.3%
C=CC(=O)NC1CCN(c2ncc3ncnc(Nc4ccc(Oc5ccc6c(c5)ncn6C)c(C)c4)c3n2)CC1,,healthy male humans,"oral, 240 mg",,participants with any TEAE,68.8%
CCN1CCN(Cc2ccc(NC(=O)c3ccc(C)c(NC(=O)c4cncc(-c5cccs5)c4)c3)cc2C(F)(F)F)CC1,LC-MS/MS,"C57BL/6 mouse, plasma","intraperitoneal, 10 mg/kg single dose, 6 h",,mean plasma concentration,42 ng/mL
COc1ccc([C@@H](O)c2cc(-c3ncnc4cc(N5CCOCC5)ccc34)c(F)cc2Cl)nn1,,locally advanced rectal cancer patients,"150 mg, with: capecitabine and radiotherapy",,investigations TEAE,50%
CC(C)[C@@H]1CC[C@@H](C)C[C@@H]1O,osmotic fragility,human erythrocytes,10 µM,,mean erythrocyte fragility,0.65%
CC(=O)Oc1ccccc1C(=O)O,,"male Hartley guinea pigs, anaesthetized","intravenous, 1 mg/kg group, baseline before infusion",,mean blood pressure,38 ± 0.1 mmHg
Cc1cc(Nc2cc3ncccc3c(N[C@@H]3C[C@H]4CC[C@@H](C3)N4CCC#N)n2)n[nH]1,,healthy human subjects,"oral, 30 mg, 2 weeks, single ascending dose",,pruritus incidence,0%
N#CCNC(=O)c1ccc(-c2ccnc(Nc3ccc(N4CCOCC4)cc3)n2)cc1,"population PK model, NONMEM","human, plasma","oral, typical value, final model",,Q/F,36.1 L/h
CC(C)(C)n1ncc(OCc2ccc(COCC[18F])cc2)c(Cl)c1=O,dynamic PET,healthy C57BL/6J mouse,"iv, dose not given",,maximum myocardial uptake,6.4 ± 0.4 SUV
Cc1cc(-c2nccc3c2ccn3CC(=O)Nc2ccc(-c3cnccn3)cn2)ccn1,,healthy human volunteers,"oral, 20 mg single dose, single ascending dose",,upper abdominal pain incidence,0%
CNC(=O)c1ccc(-c2cnc3ncc(Cc4ccc5ncccc5c4)n3n2)cc1F,,healthy human subjects,"oral, 200 mg, Nausea, grade 3, all causality, with: itraconazole 200 mg/day",,subjects with adverse event,0%
O=C(Nc1nc2cccc(-c3ccc(CN4CCS(=O)(=O)CC4)cc3)n2n1)C1CC1,item: asthenia,human rheumatoid arthritis patients,"oral, 75 mg once daily, 4 weeks, regardless of relatedness",,treatment-emergent adverse events,0%
COc1ccc(CNc2nc(-c3ccc(C(=O)O)cc3)nc3c2c2ccccc2n3C)cc1Cl,,NSG mice,"dose not given, day 10 of treatment",,body weight,21.6 g and 22.6 g and 23.1 g and 23.8 g
Nc1ccn([C@@H]2O[C@H](CO)[C@@H](O)C2(F)F)c(=O)n1,,"Sprague-Dawley rat, male, plasma","intraperitoneal, 5 mg/kg",,CL/F,1.12 ± 0.23 (mg/kg)/(µg/mL)/h
C=CC(=O)Nc1cc(Nc2ncc(C(=O)OC(C)C)c(-c3cn(C)c4ccccc34)n2)c(OC)cc1N(C)CCN(C)C,two-compartment PK model,mouse,dose not given,,central volume of distribution,131 L
C[C@H]1CN(c2n[nH]c3nc(N[C@H]4CC[C@H](NS(=O)(=O)CCC(F)(F)F)CC4)ncc23)CCO1,,male Han Wistar rat,"oral, 1000 mg/kg/day, 7 days",relative to: vehicle,calcium concentration,0.94 fold
CNc1ccc(-c2nc3ccc(O)cc3s2)cc1 [carbon-11 labelled],ex vivo biodistribution,"APP/PS1 mouse, AD model, muscle","intravenous, 30 min",,SUV,0.171 ± 0.072
O=C(O)CSc1nnc(Br)n1-c1ccc(C2CC2)c2ccccc12,,"KM mouse, chronic hyperuricaemia model, serum",dose not given,,AST,203 U/L and 222 U/L and 122 U/L and 214 U/L and 139 U/L and 193 U/L
CNCc1ccc(-c2[nH]c3cc(F)cc4c3c2CCNC4=O)cc1,,human patients,"oral, 40 mg once daily, grade 500 or higher",,incidence of any adverse event,100%
COc1cc2[nH]c(C)c(-c3ccccc3CO)c(=O)c2cc1Cl,,PAMPA,pH 7.4,,Papp,19 ×10⁻⁶ cm/s
FC(F)(F)c1ccc(CNc2ccc(Cc3c[nH]c4ncc(Cl)cc34)cn2)cn1,item: aspartate aminotransferase increased,patients with advanced solid tumours,"oral, dose not given, grade 3 and 4, possibly related to drug",,adverse event incidence,7%
CC(C)[C@@H](CS(=O)(=O)C(C)C)N1C(=O)[C@@](C)(CC(=O)O)C[C@H](c2cccc(Cl)c2)[C@H]1c1ccc(Cl)cc1,,"FVB mice Abcb1a/b Abcg2 knockout, spinal cord","intravenous, 20 mg/kg",,AUC(0-inf),8590 ± 214 ng·h/mL
CC1(C)C=C(CNc2ccc3c(c2)Cc2cc(Br)ccc2-3)C(C)(C)N1[O],,mouse,"intraperitoneal, 10 mg/kg, 1 h",,brain/plasma ratio,0.5
COc1cc2c3c(n(CCCN4CCOCC4)c(=O)c2cc1OC)-c1cc2c(cc1C3=O)OCO2,,"beagle dog, female, plasma","oral, 1720 mg/m^2, single dose, gelatin capsules",,Cmax,244 ng/mL
CNC(=O)c1ccc(-c2cnc3ncc(Cc4ccc5ncccc5c4)n3n2)cc1F,"CTCAE v4.0, any causality",human gastric cancer patients,"oral, 600 mg twice daily, expansion cohort at RP2D",,upper abdominal pain incidence (all grades),11%
Cn1c(C(F)(F)F)cc(=O)n(-c2cc(Oc3cccnc3OCC(=O)O)c(Cl)cc2F)c1=O,,"beagle dog, male, plasma","oral capsule, 100 mg/kg/day epyrifenacil, week 13, 90-day study",,Tmax,5 h
CN1CCN(c2cccc3c2CCN(C(=O)/C=C/c2c(-n4cnnn4)ccc(Cl)c2F)[C@@H]3C(=O)Nc2ccc(C(=O)O)cc2)C(=O)C1,,healthy human subjects,"intravenous infusion, 1 mg/h, 5 days, study",,upper respiratory infection subjects,0%
CN[C@@H]1COc2c(S(=O)(=O)NC(=O)Nc3c4c(cc5c3CCC5)CCC4)cnn2C1,,"human, serum","oral, 900 mg twice daily, day 20, with: midazolam",,ALT,351 U/L
COCc1cc(C(=O)Nc2cc([C@H]3CC[C@@H](OC(=O)NC(C)C)C3)[nH]n2)n(C)n1,,"OVCAR-3 xenograft, NOD/SCID gamma mice, plasma","oral, 15 twice daily, PK/PD study",,unbound C24h,17 nM
CO[C@H]1C[C@@H]2CC[C@@H](C)[C@@](O)(O2)C(=O)C(=O)N2CCCC[C@H]2C(=O)O[C@H]([C@H](C)C[C@@H]2CC[C@@H](O)[C@H](OC)C2)CC(=O)[C@H](C)/C=C(\C)[C@@H](O)[C@@H](OC)C(=O)[C@H](C)C[C@H](C)/C=C/C=C/C=C/1C,,healthy adult horses,"oral, 0.06 mg/kg, 12 h",,rectal temperature,37.8 ± 0.6 °C
N#Cc1ccc2c(c1)[C@H]1CCCN(C(=O)c3ccc4[nH]cnc4c3)[C@H]1C2,,human females,"360 mg, day 7",,SHBG level,34.9 nmol/L
O=C(NC1CCCCC1)c1ncccc1O,,,,,pKa (acidic),7.8
Cn1cc(Nc2nccc(-c3ccc4c(c3)CN(C3COC3)CC[C@H]4NC(=O)c3cn(C(C)(C)C)nn3)n2)cn1,,"human, whole blood","150 mg twice daily, day 7",relative to: pre-dose baseline,CD8+ T cell count change,-3.15%
O=C(Nc1cnccc1Cl)N1CCN(Cc2ccc3c(c2)OC(F)(F)O3)CC1,,"healthy young men, plasma","oral, 25 mg once daily, day 10, dosing interval 24 h",,AUC(0-tau),2200 ng·h/mL
C[C@@H]1CN(c2c(F)c(N)c3c(=O)c(C(=O)O)cn(C4CC4)c3c2F)C[C@H](C)N1,,"male Hartley guinea pigs, anaesthetized","intravenous, 3 mg/kg over 10 min, after infusion",,mean blood pressure,33 ± 0.1 mmHg
C[C@H]1O[C@@H](O[C@H]2CC[C@@]3(C)[C@@H](CC[C@]4(C)[C@@H]3C=C[C@]35OC[C@@]6(CCC(C)(C)C[C@H]63)[C@@H](O)C[C@]54C)[C@]2(C)CO)[C@H](O)[C@@H](O[C@@H]2O[C@H](CO)[C@@H](O)[C@H](O)[C@H]2O)[C@H]1O,UHPLC-MS/MS,"mouse, plasma","oral, 50 mg/kg, 0.5 h",,plasma concentration,63.1 ng/mL
CC/C(=C(\c1ccccc1)c1ccc(OCCN(C)C)cc1)c1ccccc1,,"male Hartley guinea pigs, anaesthetized","intravenous, 3 mg/kg group, baseline before infusion",,mean blood pressure,39 ± 0.2 mmHg
Cc1c(-c2ccc(N3CCc4cccc(C(=O)Nc5nc6ccccc6s5)c4C3)nc2C(=O)O)cnn1CC12CC3(C)CC(C)(C1)CC(OCCNCC[C@H](O)CO)(C3)C2,,"beagle dog, male, anaesthetised","intravenous infusion, 0.3 mg/kg/min, 75 min",relative to: vehicle,mean arterial pressure change,-28%
O=C(O)CCC(=O)O.[2H]C([2H])([2H])Oc1cc(C)c2[nH]ccc2c1CN1CC[C@@H](C2CC2)C[C@H]1c1ccc(C(=O)O)cc1,multiple ascending dose,healthy Chinese subjects,100 mg twice daily,,subjects with hyperuricaemia,0%
COc1cccc(OC)c1-c1cc(C(=O)NC2(C(=O)O)C3CC4CC(C3)CC2C4)nn1-c1ccc(C(=O)N(C)CCCN(C)CCCN(C)C(=O)CN2CCN(CC(=O)[O-])CCN(CC(=O)[O-])CCN(CC(=O)[O-])CC2)cc1C(C)C.[177Lu+3] (stereo not shown),,"mouse, HT-29 xenograft, lung",72 h post injection,,tissue uptake,0.16 %ID/g
CCN1/C(=C/C(C)=O)Sc2ccc(F)cc21,,cynomolgus monkey,"oral, 10 mg/kg, 4 h post-dose",,QRS duration,36 ± 1 ms
CCc1cc2ncc(CN3CCN(c4ccc(C(=O)NC)nc4)CC3)cc2[nH]c1=O,,"female rat, blood","oral, 25 mg/kg/day, 4 weeks",relative to: vehicle control,white blood cell count ratio,0.72
CNC(=O)c1cccc(-c2ccc(O[C@H]3O[C@H](CO)[C@@H](O)[C@H](O)[C@@H]3O)c(C)c2)c1,,"male Sprague-Dawley rat, plasma","intravenous, 3 mg/kg, group mean",,C0,2910 ng/mL
Cc1ccc([C@@H]2O[C@H](CO)[C@@H](O)[C@H](O)[C@H]2O)cc1Cc1ccc(-c2ccc(F)cc2)s1,item: inorganic phosphorus,Japanese type 2 diabetes patients,"200 mg, day 3, 24 h urine collection",relative to: baseline,urinary phosphate excretion change,103 mg
Cc1cc(NC(=O)c2cccc(NC(=O)/C=C/CN(C)C)c2)ccc1Nc1nccc(-c2cccnc2)n1,,"primary hepatocytes, rat Wistar male","1 µM, 30 min",,remaining compound,76.9%
O=C1CC[C@H](N2Cc3cc(N4CCN(CC5CCN(c6ccc([C@@H]7c8ccc(O)cc8CC[C@@H]7c7ccccc7)cc6)CC5)CC4)ccc3C2=O)C(=O)N1,,"human, plasma","oral, 200 mg, 49.5 h, with: dabigatran etexilate 75 mg",,Clast,120 ng/mL
Cl.[2H]C([2H])([2H])CC(=O)c1cnc(NC(=O)C2CC2)cc1Nc1cccc(-c2ncn(C([2H])([2H])[2H])n2)c1OC,geometric mean,human,"20 mg twice daily, day 7, fed, liquid, multiple dose",,CL/F,12.8 L/h
COc1nc(-c2cc(C)c(N[C@@H](C)c3cc(F)cc(F)c3)nn2)ccc1-n1cnc(C)c1,,"cynomolgus monkey, male, plasma","intravenous, 1 mg/kg",,t1/2,3.7 h
Cc1ccc(O)c(-n2nc3ccccc3n2)c1,exposure assessment,"human, age 21-60 years",foundation,,mean daily dermal uptake,109 ng/kg body weight/day
C[C@@H]1COCCN1c1cc(C2([S@](C)(=N)=O)CC2)nc(-c2cc[nH]c3nccc2-3)n1,,Japanese advanced solid tumour patients,"oral, 240 mg twice daily, any grade",,Anemia incidence,50%
CNC(=O)c1ccc(-c2cnc3ncc(Cc4ccc5ncccc5c4)n3n2)cc1F,,Japanese patients,"oral, 400 mg, any grade",,Constipation dose reduction/interruption,1%
CN1C(C(=O)Nc2nnc(C(F)(F)F)s2)=C(O)c2ccccc2S1(=O)=O,,,,,pKa (basic),< 2
C=CC(=O)N(C)CCOc1c(N)ncnc1-c1cc(F)cc(NC(=O)c2ccc(C3CC3)cc2F)c1C,,"human, whole blood","oral, 100 mg single dose",,AUC,269 ng·h/mL
CCC(=O)N(CCC(c1ccc2c(c1)OCO2)c1ccccc1OC)Cc1ccccc1 (stereo not shown),,"female athymic nude mouse, blood","i.p., 60 mg/kg twice daily, 14 days, group mean",,AST,77.5 U/L
Cc1c2oc3c(C)ccc(C(=O)N[C@@H]4C(=O)N[C@H](C(C)C)C(=O)N5CCC[C@H]5C(=O)N(C)CC(=O)N(C)[C@@H](C(C)C)C(=O)O[C@@H]4C)c3nc-2c(C(=O)N[C@@H]2C(=O)N[C@H](C(C)C)C(=O)N3CCC[C@H]3C(=O)N(C)CC(=O)N(C)[C@@H](C(C)C)C(=O)O[C@@H]2C)c(N)c1=O,LC-MS,"children with cancer, plasma","dose not given, 2 h",,maximum plasma concentration,24.8 µg/L
CC(C)(C(=O)N1CCOc2c(C#N)cncc2C1)C(F)F,item: Psychiatric disorders,human,"oral, 15 mg twice daily, 14 days, multiple ascending dose",,subjects with adverse event,12.5%
CN1C(=O)[C@@H](NC(=O)c2nnc(Cc3ccccc3)[nH]2)COc2cccnc21,phase I multiple ascending dose,"human, male and female","oral, 50 mg, 14 days",,nasopharyngitis incidence,25%
NC1(C(=O)N[C@@H](CCO)c2ccc(Cl)cc2)CCN(c2nc[nH]c3nccc2-3)CC1,,metastatic CRPC patients,"480 mg b.i.d., grade 3 to 4, treatment-related, with: enzalutamide 160 mg daily",,incidence of maculopapular rash,40%
